Assay results gathered from unrelated publications.
Each numbered part is a random draw from the data of one study; scales do not carry over between parts.

Block 1 — technique: competition protein-binding microarray; form: double-stranded DNA, one strand shown; medium: in vitro; concentration: 2 µM; added: Pho4 competitor, 0.05 µM; direction: higher = stronger binding; endpoint: fluorescence intensity; constant ends, left off below: … GTCTTGATTCGCTTGACGCTGCTG
Target: Centromere-binding protein 1, full length, His-tagged (CBF1, Saccharomyces cerevisiae, UniProt P17106, residues 1-351)
Chain of UniProt P17106 (whole entry, looked up): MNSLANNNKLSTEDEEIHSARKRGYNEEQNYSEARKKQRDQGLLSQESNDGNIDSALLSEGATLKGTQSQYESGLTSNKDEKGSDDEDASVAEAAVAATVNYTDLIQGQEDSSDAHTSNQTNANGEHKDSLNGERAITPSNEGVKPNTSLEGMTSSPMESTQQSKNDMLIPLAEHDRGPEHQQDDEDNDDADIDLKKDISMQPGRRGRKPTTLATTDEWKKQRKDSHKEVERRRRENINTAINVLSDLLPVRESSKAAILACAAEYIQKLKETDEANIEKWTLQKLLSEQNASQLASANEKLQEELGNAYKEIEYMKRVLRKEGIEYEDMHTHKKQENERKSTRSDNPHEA
Setting: whole 60-bp probe, lowest competitor level
Oligonucleotide = GCGCAATTCGCCAAGTTCGTGACGGAATTCTTCGGG; value = 77.4 a.u.
Oligonucleotide = CCTTGTTCGAGTTTGGACGTGCGGAGAATCTACCCA; value = 74.2 a.u.
Oligonucleotide = TAGTAATGTGCAAGTGATGTGGCGAGATGGTCCTTT; value = 67.9 a.u.
Oligonucleotide = CGTCCTAGCGATTGAACCGTGGGTGCCATGAGGAAG; value = 55.3 a.u.
Oligonucleotide = TACCAGGTCTTTTAGCACGCTGAACATAATACACAG; value = 131 a.u.
Oligonucleotide = CATACCCAACCTTGGAAGGTGGGTGAAGATATTTGT; value = 75.6 a.u.
Oligonucleotide = CATACCCAACCTTGGAGGGTGGGTGAAGATATTTGT; value = 63.9 a.u.
Oligonucleotide = AATGTCGACCTTTTGGACGTGGGTACATGGACGAGC; value = 55.6 a.u.
Oligonucleotide = GTATTCAGAGACCATCACGTGATGGAAACGCGATTA; value = 9180 a.u.
Oligonucleotide = GTCTCTGCTTTTCCACACGTGGAAGTTCACCAAGAA; value = 434 a.u.
Oligonucleotide = TGGGTCCACTTGAAATGCGTGCCGATGAAACGCATT; value = 74.9 a.u.
Oligonucleotide = CAGTTCATTTACTTCCACGTGTAGATGTGAAGGAAT; value = 756 a.u.
Oligonucleotide = AAAGTTCTTTTTCAACACGTGCTTTTAATCAGCATT; value = 3820 a.u.
Oligonucleotide = TGCGCAACAACTTGTCGGGTGGGTGTATGTCTAGAA; value = 98.8 a.u.
Oligonucleotide = TGCGCAACAACTTGCCCAGTGGGTGTATGTCTAGAA; value = 53.9 a.u.
Oligonucleotide = AAAGCGGTAATTTGAATCGTGGGTGCAGATATCTAT; value = 85.5 a.u.
Oligonucleotide = CGCTTGCCTTTAATCCTCGTGCCGATCCACAAAATC; value = 122 a.u.
Oligonucleotide = GGCCTTGGTAATGGGAACGTGGCCGAAAACGGCGAG; value = 64.5 a.u.
Oligonucleotide = GGAGGGCAGTAGTTCCATGTGCTTCTCAGAAGAGCT; value = 84 a.u.
Oligonucleotide = GCGAATAATATGTTTTGCGTGGGTATCCCAGGAGCG; value = 70.8 a.u.
Oligonucleotide = TGCGCAACAACTTGGCGTGTGGGTGTATGTCTAGAA; value = 59.7 a.u.
Oligonucleotide = CCAAAAGCGTCATTCCACGTGGACCCGCTTAGTTTA; value = 450 a.u.
Oligonucleotide = AACTGCCAATACCGTCACGTTATGGAAGGTGAAGTG; value = 384 a.u.
Oligonucleotide = AGTTTCAATATCTGTCCCGTGGAAGTTATATTCGCT; value = 206 a.u.

Block 2 — technique: RNA Bind-n-Seq; form: RNA; medium: in vitro; concentration: 20 nM; setting: 6-mer, flanks averaged, single round; added: 150 mM KCl; relative to: input library; direction: higher = stronger binding; endpoint: 6-mer enrichment (R)
Target: TAR DNA-binding protein 43, full length, His tag (TARDBP, Homo sapiens, UniProt Q13148, residues 1-414)
Oligonucleotide = UGAGGA; value = 1.51
Oligonucleotide = AUAGUU; value = 0.598
Oligonucleotide = GGUGCU; value = 1.32
Oligonucleotide = CGUCGC; value = 0.852
Oligonucleotide = CUACCA; value = 0.595
Oligonucleotide = UGAUGU; value = 0.846
Oligonucleotide = ACGUAA; value = 0.628
Oligonucleotide = AUACAU; value = 0.582
Oligonucleotide = UGACCU; value = 0.639
Oligonucleotide = AACGCU; value = 0.606
Oligonucleotide = GGAUGA; value = 1.6
Oligonucleotide = ACGACC; value = 0.643
Oligonucleotide = CUCACA; value = 0.571
Oligonucleotide = AGUUGU; value = 0.783
Oligonucleotide = UUACAA; value = 0.636
Oligonucleotide = CACGCA; value = 0.719
Oligonucleotide = CUCGCG; value = 0.834
Oligonucleotide = UGUCUC; value = 0.605
Oligonucleotide = UGAACG; value = 0.952
Oligonucleotide = CACCCU; value = 0.673
Oligonucleotide = UCGCUG; value = 0.76
Oligonucleotide = AAUAUA; value = 0.705
Oligonucleotide = UUACGU; value = 0.635
Oligonucleotide = UCAUAA; value = 0.612
Oligonucleotide = GGCUAC; value = 0.982

Block 3 — technique: RNA Bind-n-Seq; form: RNA; medium: in vitro; concentration: 1 µM; setting: whole 134-nt RNA, ends assumed; added: 150 mM KCl; relative to: input library; direction: higher = stronger binding; endpoint: log2 enrichment
Target: Ras GTPase-activating protein-binding protein 1, C-terminal RGG region (G3BP1, Homo sapiens, UniProt Q13283)
Chain of UniProt Q13283 (whole entry, looked up): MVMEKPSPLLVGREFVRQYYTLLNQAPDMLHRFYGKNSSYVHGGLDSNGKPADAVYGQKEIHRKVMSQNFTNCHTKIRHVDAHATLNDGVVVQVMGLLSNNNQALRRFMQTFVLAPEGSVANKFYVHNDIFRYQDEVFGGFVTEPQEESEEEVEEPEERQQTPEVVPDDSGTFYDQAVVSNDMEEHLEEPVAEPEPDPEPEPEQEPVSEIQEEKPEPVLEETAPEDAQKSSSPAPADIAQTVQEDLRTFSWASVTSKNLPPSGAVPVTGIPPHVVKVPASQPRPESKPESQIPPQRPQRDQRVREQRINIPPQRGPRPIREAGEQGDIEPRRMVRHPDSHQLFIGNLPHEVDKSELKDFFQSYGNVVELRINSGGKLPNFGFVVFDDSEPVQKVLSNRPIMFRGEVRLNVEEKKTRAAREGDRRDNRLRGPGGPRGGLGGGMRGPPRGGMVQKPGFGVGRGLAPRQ
Constant ends, left off below: GGGAGUUCUACAGUCCGACGAUC … UGGAAUUCUCGGGUGUCAAGG
Oligonucleotide = AAGUCCUGUGCUACACAUCGUAUGUACCGAAUCGGGGUUUGGGGUUUGGGGUGGGGAAAGUAUUAUGUUACGCCGUUCGGAUCUGCACUU; value = 2.88
Oligonucleotide = UGGCCCUGGUGGCAUGCGGGGAGGAAGAGGUGGCCUCAUGGAUCGUGGUGGUCCCGGUGGAAUGUUCAGAGGUGGCCGUGGUUGAGACAG; value = 3.78
Oligonucleotide = ACUUUGUCAGAUAUUGCUAGGGACCAGUGAGAUAGAUAAUCCAAAAAUAAUAAUUUGACUUUGGUUGAGUAUGUCAUUACCACAGUGUUA; value = -2.3
Oligonucleotide = GUCCUGUGCUACACAUCGUAUGUACCGAAUCGGGGAAAAAGGGGUUUGGGGUUUGGGGAAAGUAUUAUGUUACGCCGUUCGGAUCUGCAC; value = 3.13
Oligonucleotide = UCCUGUGCUACACAUCGUAUGUACCGAAUCGGGGCCCCCCGGCCCCCCGGCCCCCCGGGGAAAGUAUUAUGUUACGCCGUUCGGAUCUGC; value = -0.81
Oligonucleotide = CCUGUGCUACACAUCGUAUGUACCGAAUCGGAAAAAAAGGAAAAAAAGGGAAAAAAAGGGAAAGUAUUAUGUUACGCCGUUCGGAUCUGC; value = -2.07
Oligonucleotide = UAACUUUAGAGGAGGAUCUGAUGGAUAUGGCAGUGGACGUGGAUUUGGGGAUGGGUAUAAUGGGUAUGGAGGAGGACCUGGAGGUGGCAA; value = -0.413
Oligonucleotide = CAAGUCCUGUGCUACACAUCGUAUGUACCGAAUCGGGGAAAGGGAAAGGGGAAAGGAAAGUAUUAUGUUACGCCGUUCGGAUCUGCACUU; value = -1.07
Oligonucleotide = GUCCUGUGCUACACAUCGUAUGUACCGAAUCGGCCCCCGGCCCCCGGGGCCCCCGGGGAAAGUAUUAUGUUACGCCGUUCGGAUCUGCAC; value = -1.29
Oligonucleotide = UGGCCCUGGUGGCCUGCGGGGAGGAAGAGGUGGCCUCAUGGAUCGUGGUGGUCCCGGUGGAAUGUUCAGAGGUGGCCGUGGUGGAGACAG; value = 1.95
Oligonucleotide = UGGCCCUGGUGGCAUGCGGGGAGGAAGAGGUGGCCUCAUGGAUCGUGGUGGUCCAGGUGGAAUGUUCAGAGGUGGCCGUGGUGGAGACAG; value = 1.96
Oligonucleotide = UAACUUGAGAGGAGGAUCUGAUGGAUAUGGCAGUGGACGUGGAUUUGGGGAUGGCUAUAAUGGGUAUGGAGGAGGACCUGGAGGUGGCAA; value = 1.49
Oligonucleotide = CACAGACAACACGCACCCACAUAGACACAGAGGGAAGGGGUUGGGAUGGGGACAGGGUGCACAGCAGGGCGGGGUAGGACCCCAGCCCCU; value = 0.157
Oligonucleotide = UAACUUUAGAGGAUGAUCUGAUGGAUAUGGCAGUGGACGUGGAUUUGGGGAUGGCUAUAAUGGGUAUGGAGGAGGACCUGGAGGUGGCAA; value = -1.25

Block 4 — technique: protein binding microarray; form: double-stranded DNA, one strand shown; medium: in vitro; concentration: not given; relative to: not given; direction: higher = stronger binding; endpoint: E-score
Target: Histone acetyltransferase KAT6A, both winged helices, GST fusion (KAT6A, Homo sapiens, UniProt Q92794, residues 1-181)
Setting: 8-mer, flanks averaged, mean of 2 arrays, mostly near background
Construct (chain): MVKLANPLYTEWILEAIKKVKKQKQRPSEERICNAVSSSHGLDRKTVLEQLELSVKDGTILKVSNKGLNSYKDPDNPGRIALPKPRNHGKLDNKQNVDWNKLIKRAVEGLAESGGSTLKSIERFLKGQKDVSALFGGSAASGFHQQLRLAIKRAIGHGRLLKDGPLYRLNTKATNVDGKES
Oligonucleotide = GCCAGACA; value = -0.115
Oligonucleotide = AAGTAGTG; value = -0.132
Oligonucleotide = CCACGCAA; value = -0.0125
Oligonucleotide = CCGTCGTC; value = 0.154
Oligonucleotide = GACCCCAC; value = -0.204
Oligonucleotide = ATCTTCCC; value = -0.0934
Oligonucleotide = AGAGCTGC; value = 0.0621
Oligonucleotide = GGATGGGA; value = -0.194
Oligonucleotide = AAGAAGAG; value = -0.124
Oligonucleotide = CGGGTTAA; value = 0.27
Oligonucleotide = AGGCCCGG; value = 0.125
Oligonucleotide = AGTGAAAC; value = -0.104
Oligonucleotide = CGCAGCGC; value = 0.316
Oligonucleotide = GCATATAC; value = 0.0582
Oligonucleotide = ACTCGAAG; value = 0.000385
Oligonucleotide = GAGCATGC; value = -0.0861
Oligonucleotide = AACATCCC; value = -0.0467
Oligonucleotide = ACGCCTAG; value = 0.136
Oligonucleotide = ACCATTTG; value = 0.0283
Oligonucleotide = GAGAACAA; value = 0.00668
Oligonucleotide = CCCCCACC; value = -0.189
Oligonucleotide = GCAATGAA; value = 0.0385
Oligonucleotide = AGCCACGA; value = -0.143
Oligonucleotide = ACACTTCT; value = -0.181
Oligonucleotide = GAGTCCGA; value = 0.0585

Block 5 — technique: RNA Bind-n-Seq; form: RNA; medium: in vitro; concentration: 365 nM; relative to: no-protein control; direction: higher = stronger binding; endpoint: RBNS enrichment (R)
Target: RNA binding protein fox-1 homolog 2, RRM domain, GST-SBP tag (RBFOX2, Homo sapiens, UniProt O43251-10, residues 100-194)
Setting: natural RNA segment, single round, ends assumed
Constant ends, left off below: GGGAGUUCUACAGUCCGACGAUC … UGGAAUUCUCGGGUGCCAA
Residues (chain): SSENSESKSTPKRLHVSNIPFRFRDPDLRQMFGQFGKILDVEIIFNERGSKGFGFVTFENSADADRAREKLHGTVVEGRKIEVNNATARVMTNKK
Oligonucleotide = UCCCGAGUCCUUGGCUUAGCAUGGCCUCCUUUUCUAGAACUGCACAGAGGGGAGGAGAGAGUAGCCGGUAGACGGAAGGAGGGAGGGGCAUGCGUACAUGUCAGGUGUUG; value = 8.91
Oligonucleotide = UUCAAUAAGGUGAAAUAUCAAUGAUUGGUACACAGUCACAAUGUACCGUUAAAAUAUGCACUAAGUCUCUUUUUUUUACAAAGGCUGAAUUCAGCAAGGCGCUAACUUGC; value = 0.58
Oligonucleotide = AUCGCCUAGCGUUUGGGGAGGAACAGGGAGAGAGCUUCGGGGCGUCUGUCUCCGUGCUCUCCUGCCUCCACCGCCUUGGUUUUGCUUCCUGCUGGAGGCAGGGCACCUGC; value = 0.225
Oligonucleotide = AUCUUUCCAACCAGCAUCCCAGACCUCGGACUCUUGAAGGGAAAAGAGUCUAACUCCCUCCUCCCUAGGGAUUCCUACCCCACAAAGGUCUCAUGGACCAUAGAACUCAC; value = 1.5
Oligonucleotide = UUGAGGUUUAACUAACAAGGAUUUACUUCCAGUAACCUGACAUAUCUCAUCUUGUCAGAGCCCUAUGUGCUAUAUCCACAUUUAUAUAUAUUUUUUCUAGCCUAUGUAGU; value = 1.13
Oligonucleotide = CUCCUCUGUCCUUCUAUAACUAGGUUCCUGUUCUUACACACCUGUCCACCGAAUGUCACUCACUGAGCUGGGGUUGCUUUGUCUGUCUGAUUCAAAAUGUGUCCACACUU; value = 0.267
Oligonucleotide = CUUUGAGGGGCUGCUCUUCUCAUCUGGUGCCAAAAGUUCAUUUGCAGCUUCUACAACAAUCCCCACAAAAGAUGAACAGCCAUUAGAAGCCUCCCCUCCUUUUGAUGCUC; value = 0.41
Oligonucleotide = CCACUUGUUAGAGGUAGGGCUAUGAGGAAGCAAGGAUGGGAGGUGGGGUUGAGGUUUGGGAAGCAGGCAGCAAGCGUUACCUUUGCAGAAGACUCGUGUCUUGCUGUAGA; value = 0.914
Oligonucleotide = GACAGCACAGAGCCGCGGCGUACACACUGACGUACCCACCACCAACAGAUUGAGGCACUGACGCAGCCAGCUUAGCCCAGCAUUACUGUCUCUGUUGUGAGCUUGCUCUU; value = 0.416
Oligonucleotide = AACCAGAAUUCACAAAGUCCUAUGCAACCCUAGACAGGAGGAGGUUAGAGAGUCUGUCUUGAUUUGUGGUUUCAGAGACCCUAGAGAAAUUUGUACCAGUUUGUAUUAAA; value = 1.42
Oligonucleotide = AAGCCCAUGUCAGGGCGAUCCUGGUUCAAAUGUGCCAUUUCCCGGGUUGAUGCUGCCACACUUUGUAGAGAGUUUAGCAACACAGUGUGCUUAGUCAGCGUAGGAAUCCU; value = 0.274
Oligonucleotide = AUAAAUAUGUAAGACUAGGCUUUACUGUCUUAUGCUUAUGGACAUUGUAUAUUUGUAUUUUAUGACCAAGUAGACCAAGUCAGAAAGAUCUCUCUCGAGCGUACCAUAAA; value = 0.272

Excerpt of the above (block 4):
Oligonucleotide = AAGAAGAG; value = -0.124
Oligonucleotide = CGGGTTAA; value = 0.27
Oligonucleotide = AGGCCCGG; value = 0.125
Oligonucleotide = AGTGAAAC; value = -0.104
Oligonucleotide = CGCAGCGC; value = 0.316
Oligonucleotide = GCATATAC; value = 0.0582
Oligonucleotide = ACTCGAAG; value = 0.000385
Oligonucleotide = GAGCATGC; value = -0.0861
Oligonucleotide = AACATCCC; value = -0.0467
Oligonucleotide = ACGCCTAG; value = 0.136
Oligonucleotide = ACCATTTG; value = 0.0283
